Measurements of several laboratories.
Each numbered part is a random draw from the data of one study; scales do not carry over between parts.

Sample 1
Target: Sal-like protein 4, full length isoform A (SALL4, Homo sapiens, UniProt Q9UJQ4, residues 1-1053)
Sequence of UniProt Q9UJQ4 (whole entry, looked up): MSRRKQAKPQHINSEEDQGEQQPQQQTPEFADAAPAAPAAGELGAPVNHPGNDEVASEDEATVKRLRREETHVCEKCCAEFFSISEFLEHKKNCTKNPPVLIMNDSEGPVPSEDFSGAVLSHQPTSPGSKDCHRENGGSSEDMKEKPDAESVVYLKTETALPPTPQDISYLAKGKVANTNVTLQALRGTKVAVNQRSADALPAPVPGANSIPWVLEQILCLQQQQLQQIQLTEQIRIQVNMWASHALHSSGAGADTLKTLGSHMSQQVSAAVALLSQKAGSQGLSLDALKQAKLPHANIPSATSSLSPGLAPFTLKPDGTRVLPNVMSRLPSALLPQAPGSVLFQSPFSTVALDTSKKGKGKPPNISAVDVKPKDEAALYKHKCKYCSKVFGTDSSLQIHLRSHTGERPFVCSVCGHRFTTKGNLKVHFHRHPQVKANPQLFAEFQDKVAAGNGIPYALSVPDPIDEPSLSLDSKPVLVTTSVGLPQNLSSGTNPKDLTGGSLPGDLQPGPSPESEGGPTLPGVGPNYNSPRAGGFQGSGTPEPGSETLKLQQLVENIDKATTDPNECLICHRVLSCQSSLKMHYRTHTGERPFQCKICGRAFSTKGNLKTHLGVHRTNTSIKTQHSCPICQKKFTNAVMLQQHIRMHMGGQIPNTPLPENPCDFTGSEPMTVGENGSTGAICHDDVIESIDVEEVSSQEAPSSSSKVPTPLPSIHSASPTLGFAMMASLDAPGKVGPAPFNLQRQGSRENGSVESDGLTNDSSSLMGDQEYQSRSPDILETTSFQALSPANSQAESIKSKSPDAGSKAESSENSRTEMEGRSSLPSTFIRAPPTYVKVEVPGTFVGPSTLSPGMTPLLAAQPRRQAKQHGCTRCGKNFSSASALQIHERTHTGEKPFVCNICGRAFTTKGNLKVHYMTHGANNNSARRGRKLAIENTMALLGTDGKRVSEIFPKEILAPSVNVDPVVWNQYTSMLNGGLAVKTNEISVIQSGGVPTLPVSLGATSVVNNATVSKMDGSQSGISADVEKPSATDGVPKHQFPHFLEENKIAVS
Technique: universal PBM
Molecule type: double-stranded DNA, one strand shown
Matrix: in vitro
Tested at: 600 nM
Setting: 8-mer, flanks averaged, mean of replicates
Direction: higher = stronger binding
| Sequence | E-score |
| --- | --- |
| ACGGGTCA | -0.285 |
| GTGGTTAA | 0.0314 |
| ACCCGATC | -0.216 |
| ACCCTCGA | -0.207 |

Sample 2
Target: Histone acetyltransferase KAT6A, winged helix 2, GST fusion (KAT6A, Homo sapiens, UniProt Q92794, residues 85-181)
Technique: protein binding microarray
Molecule type: double-stranded DNA, one strand shown
Matrix: in vitro
Tested at: not given
Setting: 8-mer, flanks averaged, mean of 2 arrays, mostly near background
Relative to: not given
Direction: higher = stronger binding
Target sequence (chain): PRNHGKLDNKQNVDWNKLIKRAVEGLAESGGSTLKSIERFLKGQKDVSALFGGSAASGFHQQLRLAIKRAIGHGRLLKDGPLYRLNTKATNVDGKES
| Sequence | E-score |
| --- | --- |
| AGGGAGAT | -0.2 |
| GGCACTGA | 0.0911 |
| CGGCCCAC | 0.082 |
| ACCCTTTG | -0.0348 |
| AAAGGGAT | -0.0826 |
| ACCTAGAA | -0.0616 |

Sample 3
Target: Interferon regulatory factor 7, full length, phosphomimetic (IRF7, Homo sapiens, UniProt Q92985, residues 1-503, S101K/S471D/S472D/S475D/S476D/S477D/S483D/S484D/S487D)
Technique: protein-binding microarray
Molecule type: double-stranded DNA, one strand shown
Matrix: in vitro
Tested at: 250 nM
Setting: 60-bp whole probe
Together with: salmon DNA 0.4 mg/ml
Relative to: random background probes
Direction: higher = stronger binding
Target sequence (chain): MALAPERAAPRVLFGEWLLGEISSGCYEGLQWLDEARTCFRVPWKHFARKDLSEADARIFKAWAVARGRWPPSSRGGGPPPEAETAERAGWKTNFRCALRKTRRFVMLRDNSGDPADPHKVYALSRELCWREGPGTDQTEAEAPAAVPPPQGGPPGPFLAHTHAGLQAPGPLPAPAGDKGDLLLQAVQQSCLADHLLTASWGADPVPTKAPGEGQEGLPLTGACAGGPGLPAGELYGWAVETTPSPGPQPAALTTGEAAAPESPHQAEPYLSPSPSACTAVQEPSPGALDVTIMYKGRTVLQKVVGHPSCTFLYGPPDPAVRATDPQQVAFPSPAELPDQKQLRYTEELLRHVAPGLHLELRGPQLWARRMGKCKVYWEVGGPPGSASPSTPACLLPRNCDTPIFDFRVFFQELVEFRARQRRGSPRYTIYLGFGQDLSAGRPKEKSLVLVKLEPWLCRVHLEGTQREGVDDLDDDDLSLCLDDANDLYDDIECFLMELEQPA
| Sequence | log fluorescence |
| --- | --- |
| GCCTAGCACTCATTAATAAGGTTTCCAACTGTGCTAGTCTTGATTCGCTTGACGCTGCTG | 1.1 z-score |
| GCCTAGCACTTAGGACTGGACACTGGCTTAGTGCTAGTCTTGATTCGCTTGACGCTGCTG | -0.702 z-score |
| GCCTAGCACTTAGATCTCAGTCTCGATTGGTGCTAGGTCTTGATTCGCTTGACGCTGCTG | 1.87 z-score |

Further values, each from its own experiment
| Substance | target | test | system | conditions | how to read | endpoint | value |
| --- | --- | --- | --- | --- | --- | --- | --- |
| PhoQ, residues 284 288 289 292 302 303 SMMNNA | PhoP, residues 12 14 15 18 19 TPWLV (Escherichia coli, UniProt P23836) | Sort-seq, refers to: YFP reporter | E. coli | PhoQ-PhoP variant library, together with: 10 µM Mg2+ | relative to: high Mg2+ state, higher = stronger signaling | fold induction | 1.75 |

Excerpt of the above (sample 2):
| Sequence | E-score |
| --- | --- |
| GGCACTGA | 0.0911 |
| AAAGGGAT | -0.0826 |
